Published values of several laboratories.
Compare with care: the assays were run in different laboratories. Numbers after ± are the reported error. In brackets after ≈: the same amount, converted by molar mass.

By UniProt entry, the sequences of proteins in these tests, tags left out.
UniProt P25021, whole entry: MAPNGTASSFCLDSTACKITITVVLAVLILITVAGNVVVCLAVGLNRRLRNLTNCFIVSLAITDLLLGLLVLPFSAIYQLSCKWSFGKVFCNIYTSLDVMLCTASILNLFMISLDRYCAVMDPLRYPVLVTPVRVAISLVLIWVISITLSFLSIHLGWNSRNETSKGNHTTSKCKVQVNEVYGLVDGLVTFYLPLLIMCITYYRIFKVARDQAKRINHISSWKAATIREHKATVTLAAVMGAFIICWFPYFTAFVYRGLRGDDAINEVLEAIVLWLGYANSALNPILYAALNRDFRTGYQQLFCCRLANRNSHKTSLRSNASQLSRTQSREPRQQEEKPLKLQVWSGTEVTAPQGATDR
UniProt Q16539, whole entry: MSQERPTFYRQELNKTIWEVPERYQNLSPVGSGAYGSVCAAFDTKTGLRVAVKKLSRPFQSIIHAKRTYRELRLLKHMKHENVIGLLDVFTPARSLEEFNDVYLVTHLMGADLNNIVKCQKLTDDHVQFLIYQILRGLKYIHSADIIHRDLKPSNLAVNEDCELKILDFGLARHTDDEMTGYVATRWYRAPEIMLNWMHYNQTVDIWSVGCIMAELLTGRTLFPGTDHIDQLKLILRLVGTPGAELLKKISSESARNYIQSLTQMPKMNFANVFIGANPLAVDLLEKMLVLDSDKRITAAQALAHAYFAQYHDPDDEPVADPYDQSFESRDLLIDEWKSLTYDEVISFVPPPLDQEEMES

| Molecule | target or system | assay | system | setting | scale | measurement | result |
| --- | --- | --- | --- | --- | --- | --- | --- |
| CCC(C)C(CC)C(N)=O (stereo not shown) |  | subcutaneous metrazol seizure | mouse | intraperitoneal |  | ED50 | 32 mg/kg |
| CCCCCc1cc(O)c2c(c1)OC(C)(C)[C@@H]1CCC(C)=C[C@@H]21 |  | drug discrimination | mouse C57BL/6 | intraperitoneal, 3 mg/kg, trained with 5.6 mg/kg compound | baseline: vehicle | drug-lever responding | increased |
| CSc1nc(Cl)cc(Sc2nnc(-c3cc(C(F)(F)F)cc(C(F)(F)F)c3)[nH]2)n1 | Acinetobacter baumannii |  | ATCC 9955 | together with: PMBN 25 µg/mL |  | MIC | 1 µg/mL (≈ 2.12 µM) |
| CCCN1CCN(c2ccc3c(c2)C2CC3CCN2C(=O)OCc2ccccc2)CC1 (stereo not shown) | Histamine H2 receptor (HRH2, Homo sapiens, UniProt P25021) | binding, radioligand binding |  |  |  | Ki | 1.77 µM |
| CO[C@]12CC[C@@]3(C[C@@H]1[C@@](C)(O)C(C)(C)C)[C@H]1Cc4c(Cl)cc(O)c5c4[C@@]3(CCN1CC1CC1)[C@H]2O5 |  | tail-flick test | mice | 30 mg/kg |  | peak antinociception | 15% |
| CN1CC[C@]23c4c5ccc(O)c4O[C@H]2[C@@H](O)C=C[C@H]3[C@H]1C5 |  | cAMP inhibition, GloSensor |  | unit not given | baseline: MOR over DOR | ΔΔlog(Emax/EC50) | 2.48 |
| Pillar[6]MaxQ |  | host, isothermal titration calorimetry | sodium phosphate buffer | pH 7.4, together with: methamphetamine |  | Kd | 0.101 µM |
| N#Cc1c(-c2ccc(-c3no[n+]([O-])c3C#N)s2)no[n+]1[O-] |  | chemiluminescence | solution | together with: cysteine |  | NO release | 1.19 mol/mol |
| CN(C(=O)Cc1ccc(Cl)c(Cl)c1)[C@@H]1CCCC[C@H]1N1CCCC1 |  |  | cocaine-discriminating rats | dose not given, highest doses tested, together with: cocaine 5.6 mg/kg training | baseline: baseline | response rate | ~10% |
| CC#C/C(=N\OC[C@H]1COCCN1)c1ccc2ncnc(Nc3ccc(OCc4cccc(F)c4)c(Cl)c3)c2c1 | Mitogen-activated protein kinase 14 (MAPK14, Homo sapiens, UniProt Q16539) | kinase activity |  | 10 µM |  | inhibition | -3.4% |
| CCN1CCN(Cc2ccc(NC(=O)c3ccc(C)c(/C=C/c4cnc5[nH]ccc5c4OC)c3)cc2C(F)(F)F)CC1 | human FLT3 ITD | kinase-CDC37 interaction, inhibitor | human cells | 5 µM | baseline: vehicle | log2 fold change | -1.27 |
| CO[C@]12CC[C@@]3(C[C@@H]1[C@](C)(O)C(C)(C)C)[C@H]1Cc4ccc(O)c5c4[C@@]3(CCN1CC1CC1)[C@H]2O5 |  | tail-flick antinociception, agonist | mice |  |  | ED50 | 0.14 mg/kg |
| CC[C@H](C)[C@@H]1NC(=O)[C@H](CCC(=O)O)NC(=O)[C@@H]2CCCN2C(=O)[C@H](Cc2c[nH]cn2)NC(=O)[C@H](CC(=O)O)NC(=O)[C@H](Cc2ccc(O)cc2)NC(=O)[C@H](CC(N)=O)NC(=O)[C@@H]2CSSC[C@@H]3NC(=O)CNC(=O)CNC(=O)CNC(=O)[C@H](C)NC(=O)[C@H](C)NC(=O)CNC(=O)CNC(=O)[C@H](CSSC[C@H](NC3=O)C(=O)N[C@@H](CO)C(=O)N[C@@H](CC(=O)O)C(=O)N3CCC[C@H]3C(=O)N[C@@H](CCCNC(=N)N)C(=O)N2)NC1=O |  | barium current, inhibitor, electrophysiology |  | 0.2 µM, Cav2.3d Y1765F mutant |  | inhibition | 11.3 ± 3% |

Some of these lines once more:
| Molecule | target or system | assay | system | setting | scale | measurement | result |
| --- | --- | --- | --- | --- | --- | --- | --- |
| CCN1CCN(Cc2ccc(NC(=O)c3ccc(C)c(/C=C/c4cnc5[nH]ccc5c4OC)c3)cc2C(F)(F)F)CC1 | human FLT3 ITD | kinase-CDC37 interaction, inhibitor | human cells | 5 µM | baseline: vehicle | log2 fold change | -1.27 |
